Assay results from different studies.
Lines come from different studies, so protocols differ. Values joined by “and” are separate records of one study, mostly repeats; a detail may differ. Numbers after ± are the reported error.

SMILES | target or system | test | system | setting | how to read | measurement | value
CSCC[C@H](NC(=O)[C@@H](NC(=O)[C@H](CC(C)C)NC(=O)[C@@H](NC(=O)[C@H](Cc1c[nH]cn1)NC(=O)CCCCCNC(=O)[C@H](CCCNC(=N)N)NC(=O)[C@H](CCCNC(=N)N)NC(=O)[C@H](CCCNC(=N)N)NC(=O)[C@H](CCC(N)=O)NC(=O)[C@H](CCCNC(=N)N)NC(=O)[C@H](CCCNC(=N)N)NC(=O)[C@H](CCCCN)NC(=O)[C@H](CCCCN)NC(=O)[C@H](CCCNC(=N)N)NC(=O)CNC(=O)[C@@H](N)Cc1ccc(O)cc1)C(C)C)C(C)C)C(=O)N[C@@H](CS)C(=O)N[C@@H](C)C(=O)N[C@H](C(N)=O)[C@@H](C)O | – | – | C57BL/6J mice | Alzet osmotic pump, 3 mg/kg, 8 weeks | – | mean cell volume | 47.1 fL
CCCCCCCCCCCCCCCC(=O)N[C@@H](CCC(=O)NCCOCCOCCC(=O)NCCOCCOCCC(=O)NCCCC[C@H](NC(=O)[C@H](CC(=O)O)NC(=O)[C@H](CC(C)C)NC(=O)[C@H](Cc1ccc(O)cc1)NC(=O)[C@H](CCCCN)NC(=O)[C@H](CO)NC(=O)[C@H](Cc1ccc(O)cc1)NC(=O)[C@H](CC(=O)O)NC(=O)[C@H](CO)NC(=O)[C@@H](NC(=O)[C@H](Cc1ccccc1)NC(=O)[C@@H](NC(=O)CNC(=O)[C@H](CCC(N)=O)NC(=O)[C@@H](CO)NC(=O)[C@@H](N)Cc1c[nH]cn1)[C@@H](C)O)[C@@H](C)O)C(=O)N[C@@H](CCCNC(=N)N)C(=O)N[C@@H](CCCNC(=N)N)C(=O)N[C@@H](C)C(=O)N[C@@H](CCC(N)=O)C(=O)N[C@@H](CC(=O)O)C(=O)N[C@@H](Cc1ccccc1)C(=O)N[C@H](C(=O)N[C@@H](CCC(N)=O)C(=O)N[C@@H](Cc1c[nH]c2ccccc12)C(=O)N[C@@H](CC(C)C)C(=O)N[C@@H](CC(C)C)C(=O)N[C@@H](CC(N)=O)C(=O)N[C@H](C(=O)NCC(=O)NCC(=O)N1CCC[C@H]1C(=O)N[C@@H](CO)C(=O)N[C@@H](CO)C(=O)NCC(=O)N[C@@H](C)C(=O)N1CCC[C@H]1C(=O)N1CCC[C@H]1C(=O)N1CCC[C@H]1C(=O)N[C@@H](CO)C(N)=O)[C@@H](C)O)C(C)C)C(=O)O | – | – | rhesus monkey, plasma | intravenous, 15.3 µg/kg, single dose | – | AUC(0-t) | 289 ng·h/mL
O=c1c(-c2cnn(-c3ccccc3)c2)c(C(F)(F)F)oc2c(O)c(O)ccc12 | – | – | mouse | intraperitoneal, 100 mg/kg, 24 h, DMSO vehicle | – | trough concentration | 160 nM
CC(C)(CCCC/C=C/CCCCCC(C)(C)C(=O)O)C(=O)O | – | – | ICR mice, plasma | oral, dose not given, 48 h | – | plasma concentration | not detected
Cc1ccc(OCCN(C)C)cc1C(=O)N[C@H](C)c1cc(-c2cnn(C(F)F)c2)nc2ccccc12 | Vero E6 | – | – | 7.812 µM | – | viability | 90.6% and 96.9%
CC(C)(C)C(=O)OCOP(=O)(OCOC(=O)C(C)(C)C)C1CCCN(O)C1=O (centres unmarked) | OVCAR-4 | – | – | – | – | GI50 | 508 nM
O=C1NC2(CC2)COc2ncc(F)cc2[C@H]2COCCN2c2ccn3ncc1c3n2 | – | – | Sprague-Dawley rats, female, blood | oral, 10 mg/kg/day, end of treatment, 4-week subacute toxicity | – | basophil percentage | 0.05 ± 0.07%
CC(=O)N[C@@H](CCCNC(=N)N)C(=O)N[C@@H](CCCCN)C(=O)N[C@@H](CCC(=O)N=S(c1ccc(Cl)cc1)c1ccccc1O)C(=O)N[C@H](C(=O)N[C@@H](Cc1ccc(O)cc1)C(N)=O)C(C)C (some centres unmarked) | – | HPLC | 95% FBS in PBS | 0.5 mM, 1 h, pH 7.4, 37 °C | – | hydrolysis | 1%
CC(=O)NCCCC[C@@H]1NC(=O)[C@H](Cc2c[nH]c3c(C)cccc23)NC(=O)[C@H]([C@@H](C)O)NC(=O)[C@H](CC(N)=O)NC(=O)[C@@H](NC(C)=O)C(C)(C)SSC(C)(C)[C@@H](C(=O)N[C@@H](Cc2ccc(OCCN)cc2)C(=O)N[C@@H](Cc2ccc3ccccc3c2)C(=O)NC2(C(=O)N[C@@H](CCC(=O)O)C(=O)N[C@@H](CC(N)=O)C(=O)N[C@@H](Cc3cccnc3)C(=O)N(C)CC(N)=O)CCOCC2)NC1=O | – | equilibrium dialysis | albumin plus glycoprotein | 0.01 µM, albumin 4%, glycoprotein 0.07% | – | protein binding | 26.8 ± 1.7%
O=C(O)CC[C@H](NC(=O)[C@H](CCC(=O)O)NC(=O)[C@H](CCC(=O)O)NC(=O)[C@H](CCC(=O)O)NC(=O)[C@H](CCC(=O)O)NC(=O)CNC(=O)[C@H](CCC(=O)O)NC(=O)CNC(=O)[C@H](CCC(=O)O)NC(=O)[C@@H](Cc1ccccc1)NC(=O)[C@@H](Cc1ccccc1)NC(=O)Cc1ccc2ccccc2c1)C(=O)O | – | – | PBS | pH 7.4 | – | critical micelle concentration | 145 µM
C[C@H](O)[C@@H](NC(=O)[C@H]1CCCN1C(=O)[C@@H](CCCCN)NC(=O)[C@@H](CO)NC(=O)[C@@H](Cc1ccc(O)cc1)NC(=O)[C@@H](CC(N)=O)NC(=O)CCOCCOCCOCCNC(=O)CN1CCN(CC(=O)O)CCN(CC(=O)O)CCN(CC(=O)O)CC1)C(=O)N[C@H](CC(=O)O)C(=O)N[C@H](CCCNC(=N)N)C(=O)N[C@H](CCC(N)=O)C(=O)N[C@H](Cc1ccc(O)cc1)C(=O)N[C@H](Cc1c[nH]cn1)C(=O)N[C@H](Cc1ccccc1)C(N)=O [copper-64 labelled] | – | – | C57BL/6J mice, brain | intravenous, 1.85 MBq, 1 h, radiolabelled | – | tissue uptake | 0.04 ± 0.01 %ID/g
CC(C)[C@H](NC(=O)[C@@H](NC(=O)[C@H](CCCNC(=N)N)NC(=O)[C@H](CCCNC(=N)N)NC(=O)[C@H](CCCNC(=N)N)NC(=O)[C@H](CCC(N)=O)NC(=O)[C@H](CCCNC(=N)N)NC(=O)[C@H](CCCNC(=N)N)NC(=O)[C@H](CCCCN)NC(=O)[C@H](CCCCN)NC(=O)[C@H](CCCNC(=N)N)NC(=O)CN)[C@@H](C)O)C(=O)N[C@H](C(=O)N[C@@H](CO)C(=O)N1CCC[C@H]1C(=O)O)[C@@H](C)O | – | – | ICR mice, female, stomach | intranasal, 20 mg/kg daily, 4 weeks | – | organ weight | 0.342 ± 0.03 g
CN1Cc2cc(Cl)ccc2-n2c(nnc2C2CCN(c3cccc([18F])n3)CC2)C1 | – | – | C57BL/6 mouse male, muscle | intravenous, dose not given, 30 min, with: blocking agent 10 mg/kg | – | tissue uptake | 2.49 ± 0.65 %ID/g
C=Cc1c(C)c2cc3nc(c(CC(=O)O)c4[nH]c(cc5nc(cc1[nH]2)C(C)=C5CC)c(C)c4C(=O)O)[C@@H](CCC(=O)NCCCC[C@H](NC(C)=O)C(=O)N[C@@H](Cc1ccccc1)C(=O)N[C@@H](Cc1ccccc1)C(=O)N[C@H](C(=O)N[C@@H](CC(C)C)C(=O)N[C@@H](CCCCN)C(=O)N[C@@H](CO)C(=O)NCC(=O)N[C@@H](CCC(N)=O)C(=O)N[C@@H](Cc1ccc(O)cc1)C(=O)N[C@@H](C)C(=O)N[C@@H](CO)C(=O)N[C@@H](Cc1ccc(O)cc1)C(=O)N[C@@H](Cc1c[nH]cn1)C(=O)N[C@@H](CS)C(=O)N[C@@H](Cc1c[nH]c2ccccc12)C(=O)N[C@@H](CS)C(=O)N[C@@H](Cc1c[nH]c2ccccc12)C(=O)N[C@@H](CCCNC(=N)N)C(=O)N[C@@H](CC(=O)O)C(=O)N1CCC[C@H]1C(=O)NCC(=O)N[C@@H](CCCNC(=N)N)C(=O)N[C@@H](CO)C(=O)NCC(=O)NCC(=O)N[C@@H](CO)C(=O)N[C@@H](CCCCN)C(N)=O)C(C)C)[C@@H]3C | – | – | mouse, 4T1 breast tumour, serum | concentration not given, 21 days after single dose | – | TNF level | 47.1 pg/mL and 46.8 pg/mL
CC[C@H](C)[C@@H]1NC(=O)[C@H](Cc2ccc(O)cc2)NC(=O)CCCSC[C@@H](C(=O)N(CC(=O)N[C@@H](CC(C)C)C(=O)NCC(N)=O)Cc2ccc(F)cc2)NC(=O)[C@H](CC(N)=O)NC(=O)[C@H](CCC(N)=O)NC1=O | – | – | human | intranasal, 400 µg repeated doses | – | deaths | 0%
CC[C@H](C)[C@H](NC(=O)[C@H](Cc1c[nH]cn1)NC(=O)[C@H](CCCCN)NC(=O)[C@H](C)NC(=O)[C@H](C)NC(=O)[C@H](Cc1c[nH]cn1)NC(=O)[C@H](CCCNC(=N)N)NC(=O)CNC(=O)[C@H](Cc1c[nH]cn1)NC(=O)[C@H](CCCCN)NC(=O)[C@H](Cc1ccccc1)NC(=O)[C@@H](NC(=O)[C@H](CO)NC(=O)CNC(=O)[C@H](Cc1c[nH]c2ccccc12)NC(=O)CN)[C@@H](C)CC)C(=O)NCC(=O)N[C@@H](Cc1c[nH]cn1)C(=O)N[C@@H](C)C(=O)N[C@@H](C)C(=O)N[C@H](C(=O)N[C@@H](CC(N)=O)C(=O)N[C@@H](Cc1c[nH]cn1)C(=O)N[C@@H](Cc1ccc(O)cc1)C(=O)N[C@@H](CC(C)C)C(N)=O)C(C)C | – | – | zebrafish embryos 28 hpf, E3 medium | 1 h | – | acute toxic concentration | 25 µM
N#[11C]c1ccc(-c2csc(NN=C3CCCC3)n2)cc1 | – | – | C57BL/6 mouse, male | intravenous, 3 MBq, 5 min | – | uptake in adrenal gland | 21.6 ± 1.96 %ID/g
CCCC[C@H]1C(=O)N(C)[C@@H](CCCC)C(=O)N[C@@H](CCCNC(=O)CN2CCN(CC(=O)O)CCN(CC(=O)O)CCN(CC(=O)O)CC2)C(=O)N[C@H](C(=O)NCC(N)=O)CSCC(=O)N[C@@H](Cc2ccc(O)cc2)C(=O)N(C)[C@@H](C)C(=O)N[C@@H](CC(N)=O)C(=O)N2CCC[C@H]2C(=O)N[C@@H](Cc2c[nH]cn2)C(=O)N[C@@H](CC(C)C)C(=O)N(C)CC(=O)N[C@@H](Cc2c[nH]c3ccccc23)C(=O)N[C@@H](CO)C(=O)N[C@@H](Cc2c[nH]c3ccccc23)C(=O)N1C [gallium-68 labelled] | – | – | NOD/SCID mice, CHO-hPD-L1 xenograft, tumour over liver | iv, dose not given, 60 min | relative to: tumour over liver | tissue-to-tissue ratio | 1.6 ± 0.18
Cc1cc(-c2cc([C@@H](C)NC(=O)c3cc(OCCN(C)C)ccc3C)c3ccccc3n2)n(C)n1 | Vero E6 | – | – | 15.62 µM | – | viability | 99.2% and 102%
CC[C@H](C)[C@H](NC(=O)[C@H](CCCCN)NC(=O)CNC(=O)[C@H](CC(C)C)NC(=O)[C@H](Cc1ccccc1)NC(=O)[C@H](CCCCN)NC(=O)[C@H](CO)NC(=O)[C@H](Cc1ccccc1)NC(=O)[C@H](Cc1c[nH]c2ccccc12)NC(=O)[C@H](CCC(N)=O)NC(=O)[C@@H](NC(=O)[C@H](Cc1ccccc1)NC(=O)CCCCCNC(=O)CN1CCN(CC(=O)O)CCN(CC(=O)O)CCN(CC(=O)O)CC1)C(C)C)C(=O)N[C@@H](CCC(=O)O)C(=O)N1CCC[C@H]1C(=O)N[C@@H](CC(=O)O)C(=O)N[C@H](C(=O)N[C@@H](CO)C(=O)N[C@@H](CCC(N)=O)C(=O)N[C@H](C(=O)N[C@@H](CCC(N)=O)C(=O)N[C@@H](CC(=O)O)C(=O)N1CCC[C@H]1C(=O)N[C@@H](CC(N)=O)C(=O)N[C@@H](CC(=O)O)C(=O)N[C@@H](CCC(N)=O)C(=O)N[C@@H](Cc1ccc(O)cc1)C(=O)N[C@@H](CCC(=O)O)C(=O)N1CCC[C@H]1C(=O)N[C@@H](Cc1ccccc1)C(=O)O)C(C)C)C(C)C [copper-64 labelled] | – | – | GZMB-/- mice, CT26 tumour-bearing, stomach | 2 h, vehicle-treated | – | tissue uptake | 2.06 ± 1 %ID/g

For quick reference, copied from above:
SMILES | target or system | test | system | setting | how to read | measurement | value
CC[C@H](C)[C@@H]1NC(=O)[C@H](Cc2ccc(O)cc2)NC(=O)CCCSC[C@@H](C(=O)N(CC(=O)N[C@@H](CC(C)C)C(=O)NCC(N)=O)Cc2ccc(F)cc2)NC(=O)[C@H](CC(N)=O)NC(=O)[C@H](CCC(N)=O)NC1=O | – | – | human | intranasal, 400 µg repeated doses | – | deaths | 0%
CC[C@H](C)[C@H](NC(=O)[C@H](Cc1c[nH]cn1)NC(=O)[C@H](CCCCN)NC(=O)[C@H](C)NC(=O)[C@H](C)NC(=O)[C@H](Cc1c[nH]cn1)NC(=O)[C@H](CCCNC(=N)N)NC(=O)CNC(=O)[C@H](Cc1c[nH]cn1)NC(=O)[C@H](CCCCN)NC(=O)[C@H](Cc1ccccc1)NC(=O)[C@@H](NC(=O)[C@H](CO)NC(=O)CNC(=O)[C@H](Cc1c[nH]c2ccccc12)NC(=O)CN)[C@@H](C)CC)C(=O)NCC(=O)N[C@@H](Cc1c[nH]cn1)C(=O)N[C@@H](C)C(=O)N[C@@H](C)C(=O)N[C@H](C(=O)N[C@@H](CC(N)=O)C(=O)N[C@@H](Cc1c[nH]cn1)C(=O)N[C@@H](Cc1ccc(O)cc1)C(=O)N[C@@H](CC(C)C)C(N)=O)C(C)C | – | – | zebrafish embryos 28 hpf, E3 medium | 1 h | – | acute toxic concentration | 25 µM
N#[11C]c1ccc(-c2csc(NN=C3CCCC3)n2)cc1 | – | – | C57BL/6 mouse, male | intravenous, 3 MBq, 5 min | – | uptake in adrenal gland | 21.6 ± 1.96 %ID/g
